Measurements pooled from the literature.
Values joined by “and” are separate records of one study, mostly repeats; a detail may differ. ± marks the error that the study gave.

| SMILES | cell line | test | conditions | scale | measurement | result |
| --- | --- | --- | --- | --- | --- | --- |
| CNS(=O)(=O)Nc1nccc(Cc2c(C)c3ccc(Oc4ncccc4F)cc3oc2=O)c1F | KHOS/NP | cell viability, CellTiter-Glo | 7 days |  | IC50 | 16.3 nM |
| CC(=O)OC[C@H]1O[C@@H](n2cc(CSc3nc4ccccc4n3Cc3cn([C@@H]4O[C@H](COC(C)=O)[C@@H](OC(C)=O)C(OC(C)=O)[C@H]4OC(C)=O)nn3)nn2)[C@H](OC(C)=O)C(OC(C)=O)[C@@H]1OC(C)=O (stereo in doubt) | HEK293 | MTT | 62.5 ppm |  | cytotoxicity | 49.9% |
| CC(=O)Oc1ccccc1C(=O)[Se]CC(=O)Nc1cccc(C(F)(F)F)c1 | NCI60 ovarian subpanel | cell growth, inhibitor | five-dose |  | GI50 | 2850 nM |
| COc1ccccc1-c1ccncc1C(=O)Nc1nnc(OCc2ccc(Cl)cc2)s1 | DLD-1 BRCA2-/- |  | 2 µM |  | colony count | 17 and 14 and 22 and 28 and 16 |
| CCCC(CCC)C(=O)OCc1cn(-c2cc3ccccc3oc2=O)nn1 | SR | NCI60 single-dose screen | 10 µM |  | growth percentage | 101% |
| CO[C@@H]1[C@@H](OC(N)=O)[C@@H](O)[C@H](Oc2ccc3c(O)c(NC(=O)c4ccc(O)c(CC=C(C)C)c4)c(=O)oc3c2C)OC1(C)C | HCT-116 BRCA2-/- |  | 250 µM, replicate 1 |  | colony count | 0.1 |
| CC(C)c1ccc(N(C)c2ccc3c(c2)OCC[C@H]3CNc2cnccc2C(=O)O)cc1 | MKN-1 | cell growth or viability, ATP luminescence | 7 days |  | IC50 | 5.75 nM |
| Cc1ncsc1-c1ccc(C(C)NC(=O)C2CC(O)CN2C(=O)C(NC(=O)CCCCCCCCCCN2CCCC(Nc3ncc(Cl)c(Nc4ccccc4S(=O)(=O)C(C)C)n3)C2)C(C)(C)C)cc1 (stereo not drawn) | 22Rv1 | RNA-seq, measured: LRIF1 mRNA | concentration not given | relative to: DMSO | log2 fold change | -1.02 |
| O=C(CCCCCOc1ccc2ccccc2c1)N[C@@H](CO)C[C@@H](O)c1ccc(-c2ccccc2)cc1 | HeLa | CERT activity, HPLC-MS/MS lipidomics, measured: sphingomyelin 24 | 1 µM, 24 h, not cell-number normalised |  | sphingomyelin level | 73300 pmol/sample and 68600 pmol/sample and 63600 pmol/sample |
| CCN(C(=O)c1cc(F)ccc1Oc1nncnc1N1CCC2(C1)CN([C@H](CCCN(C)CCOC)C(C)C)C2)C(C)C | J82 | cell growth or viability | 7 days |  | GI50 | > 10000 nM |
| Cc1ccc([N+](=O)[O-])cc1S(=O)(=O)N(C)/N=C/c1cnc2ccc(Br)cn12 | HuT78 | NFAT immune response pathway, NanoString IPA | 50 nM, 10 h | direction not given | activation z-score | -3.96 |
| C[C@@H]1Cc2c([nH]c3ccccc23)[C@@H](c2c(F)cc(/C=C/C(=O)O)cc2F)N1C12CC(C1)C2 | MCF7 | RNA-seq, measured: FMN1 mRNA | 1 µM, 24 h, E2-induced gene | relative to: DMSO vehicle | log2 fold change | -1.44 |
| COc1ccc(CC[C@H]2OC(=O)[C@@H]3CCCCN3C(=O)C(=O)C(C)(C)COC(=O)C=CCCN(C)C(=O)[C@H](CC(C)C)N(C)C(=O)[C@H]3CCCN3C(=O)[C@H](Cc3ccccc3)N(C)C(=O)[C@H](Cc3ccccc3)NC(=O)CCC(=O)Nc3cccc2c3)cc1OC | HUVEC | thymidine uptake, inhibitor |  |  | IC50 | 377 ± 43 nM |
| O=C(C[Se]C(=O)c1cc2ccccc2[nH]1)Nc1cccc(C(F)(F)F)c1 | NCI60 ovarian subpanel | cell growth | 10 µM, 48 h, one-dose |  | mean growth percent | -79.1% |
| CC[C@H](CO)Nc1nc(NCc2ccc(-c3ccccn3)cc2)c2ncn(C(C)C)c2n1 | MOLT-4 | TMT mass spectrometry proteomics, measured: CCNK protein | 1 µM, 1 h | relative to: DMSO | log2 fold change | -1.34 |
| Cn1ncc2cc(-c3cncc(Cl)c3N3CCC4(CCNC4=O)CC3)ccc21 | LS174T | gene expression, microarray, measured: NOD2 (CARD15) mRNA | concentration not given, 24 h | relative to: untreated cells | log2 fold change | 3.38 |
| COC(=O)c1cc(NC2=NC(=O)C(=Cc3ccc(C)cc3)S2)ccc1OC(C)=O | MCF7 | GC-MS, measured: 2-Butenedioic acid | 1 µM | relative to: DMSO | metabolite level | -0.17 fold change |

| SMILES | cell line | test | conditions | scale | measurement | result |
| --- | --- | --- | --- | --- | --- | --- |
| CCOc1cncc(-c2ccc(NC(=O)C3(c4ccnc(NS(=O)(=O)C5CC5)n4)CCOCC3)nc2)n1 | HuT78 | cell growth or viability, ATP luminescence | 72 h |  | IC50 | 33 nM |
| O=C(C[Se]C(=O)C12CC3CC(CC(C3)C1)C2)Nc1cccc(C(F)(F)F)c1 | NCI60 ovarian subpanel | total growth inhibition, inhibitor | five-dose |  | mean TGI | 12700 nM |
| COc1cc([C@@H]2O[C@@H](c3cc(OC)c(O[C@@H]4O[C@H](CO)[C@@H](O)[C@H](O)[C@H]4O)c(OC)c3)[C@H](CO)[C@H]2CO)cc(OC)c1O | PCS-210-010 human pre-adipocytes | differentiation | 5 to 20 µM, 48 h, early differentiation |  | triglyceride level | decreased |
| Cc1[nH]c(=S)[nH]c(=O)c1/N=N/c1nnc(S)s1 | Vero | cell viability, MTT | 10.0 µg/mL |  | inhibition | 21.6 ± 0.399% |
| O=C(Nc1cc(OCCN2CCCC2)c2ccccc2n1)c1cccc(C(=O)Nc2cc(OCCN3CCCC3)c3ccccc3n2)n1 | U2OS | cell viability, CellTiter-Glo | 72 h | relative to: IC50 U2OS over WI-38 | selectivity ratio | 4 |
| O=C(C[Se]C(=O)c1ccc2ccccc2n1)Nc1cccc(C(F)(F)F)c1 | NCI60 non-small-cell lung subpanel | cell growth | 10 µM, 48 h, one-dose |  | mean growth percent | -91.7% |
| O=C1C(Br)=C(Br)C(=O)c2ccccc21 | MOLT-3 | XTT |  | relative to: IC50 MRC-5 over IC50 MOLT-3 | selectivity index | 28.7 |
| COc1ccc2c(c1)c(CC(=O)[Se]CC(=O)Nc1cccc(C(F)(F)F)c1)c(C)n2C(=O)c1ccc(Cl)cc1 | NCI60 ovarian subpanel | cell growth, inhibitor | five-dose |  | GI50 | 2060 nM |
| O=C(NCc1cc(F)cc(F)c1)[C@@]1(O)CCN(c2ccc3[nH]ccc3c2)C1=O | Melanoma PDX-derived tumour cells | colony formation, soft agar clonogenic | concentration not given, 8-10 days |  | maximal inhibition | 31% |
| C1=[N+]2CCCC[N+]3=Cc4ccc5[n]4[Au-]23[n]2c1ccc2-c1nc2ccccc2nc1-5.F[P-](F)(F)(F)(F)F | SF-295 | NCI60 five-dose screen |  |  | TGI | 4.07 -log M |
| CCN(CC)CC(=O)Nc1cccc(-n2cc(-c3ccc4ccc(-c5cn(-c6cccc(NC(=O)CN(CC)CC)c6)nn5)cc4c3)nn2)c1 | RCC4 | PCR angiogenesis array, measured: FGF2 | 5 x IC50, 6 h, normoxia | relative to: untreated | fold regulation | -1.1 |
| O=CCNCCOn1c(=O)n(OCCNCCO)c(=O)n(OCCNCCOn2c(=O)n(OCCNCCO)c(=O)n(OCCNCCO)c2=O)c1=O | A549 | cell growth or viability, MTT | 100 µg/mL, 48 h |  | viability | 26.8% |
| CC(C)(C)c1cc(-c2ccc3cccnc3n2)nc(-c2ccc3cccnc3n2)c1.COc1ccncc1.[Cl-].[Cl-].[Ru+2].c1ccc2cc3nc4c5cccnc5c5ncccc5c4nc3cc2c1 | SK-MEL-28 |  | visible light, oxygen 18.5% | relative to: dark EC50 over light EC50 | phototherapeutic index | 174 |
| CN(C)c1ccc(-n2cc(COC(=O)[C@@]3(C)C=C(C(=O)OC(C)(C)C)C(=O)CC3)nn2)cc1 | HeLa | quantitative western blot | concentration not given, 4 (unit not given), added: EGF |  | pERK/ERK ratio | 0.45 |
| O=C(C[Se]C(=O)c1ccccc1Nc1cccc(C(F)(F)F)c1)Nc1cccc(C(F)(F)F)c1 | NCI60 non-small-cell lung subpanel | cell growth | 10 µM, 48 h, one-dose |  | mean growth percent | -94% |
| CN1CCCNC(=O)c2cccc(c2)C(=O)NCCCN(C)CCCNc2cccc3c2C(=O)c2cccc(c2C3=O)NCCC1 | SAS | RNA-Seq, measured: NPIPB2 mRNA | 1 µM, 6 h | relative to: untreated cells | log2 fold change | 3.41 |
